Experimental data of several laboratories.
Lines come from different studies, so protocols differ. Several values in a cell are separate wells, animals, samples, runs or records. ± marks the error that the study gave.
MDM4: Protein Mdm4 (MDM4, Homo sapiens, UniProt O15151)

Amino acid sequences for entries named in this document (tags omitted). Residues count along the entry.
UniProt O15151, 23-111 limits assumed: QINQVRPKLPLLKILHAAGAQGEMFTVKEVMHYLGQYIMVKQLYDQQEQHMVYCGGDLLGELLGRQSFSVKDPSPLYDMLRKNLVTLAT
UniProt P21462, whole entry: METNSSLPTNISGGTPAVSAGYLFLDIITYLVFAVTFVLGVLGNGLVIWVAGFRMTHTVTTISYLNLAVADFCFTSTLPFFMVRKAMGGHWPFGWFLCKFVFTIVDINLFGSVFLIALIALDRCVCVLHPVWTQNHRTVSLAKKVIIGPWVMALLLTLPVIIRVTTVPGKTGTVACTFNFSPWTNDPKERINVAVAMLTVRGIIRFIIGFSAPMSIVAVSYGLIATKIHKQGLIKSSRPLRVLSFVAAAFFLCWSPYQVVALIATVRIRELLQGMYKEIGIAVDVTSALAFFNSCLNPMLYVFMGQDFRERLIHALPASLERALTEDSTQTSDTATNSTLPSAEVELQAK
UniProt P11245, whole entry: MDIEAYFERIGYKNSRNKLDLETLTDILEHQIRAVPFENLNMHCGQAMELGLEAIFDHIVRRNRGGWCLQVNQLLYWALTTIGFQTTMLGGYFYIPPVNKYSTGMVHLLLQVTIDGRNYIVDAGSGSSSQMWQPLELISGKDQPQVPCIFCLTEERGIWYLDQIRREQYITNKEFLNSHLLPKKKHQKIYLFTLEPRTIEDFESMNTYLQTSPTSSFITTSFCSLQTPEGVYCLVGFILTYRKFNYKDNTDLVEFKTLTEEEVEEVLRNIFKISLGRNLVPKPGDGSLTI
UniProt Q16539, whole entry: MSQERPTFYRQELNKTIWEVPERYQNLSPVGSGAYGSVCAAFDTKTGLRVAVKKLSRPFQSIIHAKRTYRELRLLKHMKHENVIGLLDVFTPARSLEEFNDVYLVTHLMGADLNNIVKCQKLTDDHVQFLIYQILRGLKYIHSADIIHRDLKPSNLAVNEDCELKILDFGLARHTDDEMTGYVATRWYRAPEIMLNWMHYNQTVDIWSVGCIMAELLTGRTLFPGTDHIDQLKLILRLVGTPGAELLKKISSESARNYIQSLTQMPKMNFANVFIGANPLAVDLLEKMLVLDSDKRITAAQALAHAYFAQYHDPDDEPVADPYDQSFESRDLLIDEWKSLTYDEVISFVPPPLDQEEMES
UniProt Q3XYE8, 1-234: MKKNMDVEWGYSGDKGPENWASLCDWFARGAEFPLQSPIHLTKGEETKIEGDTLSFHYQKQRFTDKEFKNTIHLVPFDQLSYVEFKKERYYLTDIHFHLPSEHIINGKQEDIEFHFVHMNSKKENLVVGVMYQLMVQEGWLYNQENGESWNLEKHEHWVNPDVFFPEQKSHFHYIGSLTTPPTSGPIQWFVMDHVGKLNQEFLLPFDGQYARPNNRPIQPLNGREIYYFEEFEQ
UniProt P11388, whole entry: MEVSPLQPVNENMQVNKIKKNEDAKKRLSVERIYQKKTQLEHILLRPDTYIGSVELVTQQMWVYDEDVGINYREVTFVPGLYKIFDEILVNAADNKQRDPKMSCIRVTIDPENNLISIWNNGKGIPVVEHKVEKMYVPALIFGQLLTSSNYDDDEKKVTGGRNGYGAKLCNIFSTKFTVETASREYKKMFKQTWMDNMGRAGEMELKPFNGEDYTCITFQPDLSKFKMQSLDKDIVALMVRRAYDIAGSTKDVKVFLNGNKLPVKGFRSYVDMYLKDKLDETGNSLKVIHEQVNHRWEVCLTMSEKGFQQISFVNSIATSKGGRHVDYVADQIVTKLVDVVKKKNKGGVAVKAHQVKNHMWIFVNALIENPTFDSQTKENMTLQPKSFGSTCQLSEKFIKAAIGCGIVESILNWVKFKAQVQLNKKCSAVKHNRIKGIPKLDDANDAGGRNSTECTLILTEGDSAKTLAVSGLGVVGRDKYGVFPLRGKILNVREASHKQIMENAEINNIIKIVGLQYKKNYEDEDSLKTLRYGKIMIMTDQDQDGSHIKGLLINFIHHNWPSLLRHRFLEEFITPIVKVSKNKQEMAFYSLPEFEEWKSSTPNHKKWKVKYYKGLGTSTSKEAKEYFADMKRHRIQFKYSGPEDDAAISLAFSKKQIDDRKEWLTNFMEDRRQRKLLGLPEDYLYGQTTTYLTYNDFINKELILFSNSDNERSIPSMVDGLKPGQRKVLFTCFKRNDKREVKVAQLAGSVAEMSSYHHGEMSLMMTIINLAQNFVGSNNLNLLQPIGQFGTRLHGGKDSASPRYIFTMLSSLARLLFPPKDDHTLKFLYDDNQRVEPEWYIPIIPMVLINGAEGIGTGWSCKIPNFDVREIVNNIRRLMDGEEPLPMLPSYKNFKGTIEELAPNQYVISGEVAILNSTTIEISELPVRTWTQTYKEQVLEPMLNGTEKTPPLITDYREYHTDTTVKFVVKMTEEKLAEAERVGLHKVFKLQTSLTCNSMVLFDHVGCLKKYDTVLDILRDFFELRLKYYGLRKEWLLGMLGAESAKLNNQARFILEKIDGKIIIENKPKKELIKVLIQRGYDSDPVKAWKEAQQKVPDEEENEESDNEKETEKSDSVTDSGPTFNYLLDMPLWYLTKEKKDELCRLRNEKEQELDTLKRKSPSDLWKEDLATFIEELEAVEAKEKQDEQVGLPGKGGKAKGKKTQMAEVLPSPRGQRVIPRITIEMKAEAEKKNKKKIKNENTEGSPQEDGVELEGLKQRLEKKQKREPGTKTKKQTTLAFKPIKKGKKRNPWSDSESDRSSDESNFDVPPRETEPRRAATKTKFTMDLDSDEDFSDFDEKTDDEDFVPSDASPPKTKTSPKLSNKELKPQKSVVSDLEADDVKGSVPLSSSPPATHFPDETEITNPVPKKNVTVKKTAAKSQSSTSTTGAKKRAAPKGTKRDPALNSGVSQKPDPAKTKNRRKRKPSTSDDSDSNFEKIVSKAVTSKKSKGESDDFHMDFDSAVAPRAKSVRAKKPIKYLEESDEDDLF
UniProt Q04609, whole entry: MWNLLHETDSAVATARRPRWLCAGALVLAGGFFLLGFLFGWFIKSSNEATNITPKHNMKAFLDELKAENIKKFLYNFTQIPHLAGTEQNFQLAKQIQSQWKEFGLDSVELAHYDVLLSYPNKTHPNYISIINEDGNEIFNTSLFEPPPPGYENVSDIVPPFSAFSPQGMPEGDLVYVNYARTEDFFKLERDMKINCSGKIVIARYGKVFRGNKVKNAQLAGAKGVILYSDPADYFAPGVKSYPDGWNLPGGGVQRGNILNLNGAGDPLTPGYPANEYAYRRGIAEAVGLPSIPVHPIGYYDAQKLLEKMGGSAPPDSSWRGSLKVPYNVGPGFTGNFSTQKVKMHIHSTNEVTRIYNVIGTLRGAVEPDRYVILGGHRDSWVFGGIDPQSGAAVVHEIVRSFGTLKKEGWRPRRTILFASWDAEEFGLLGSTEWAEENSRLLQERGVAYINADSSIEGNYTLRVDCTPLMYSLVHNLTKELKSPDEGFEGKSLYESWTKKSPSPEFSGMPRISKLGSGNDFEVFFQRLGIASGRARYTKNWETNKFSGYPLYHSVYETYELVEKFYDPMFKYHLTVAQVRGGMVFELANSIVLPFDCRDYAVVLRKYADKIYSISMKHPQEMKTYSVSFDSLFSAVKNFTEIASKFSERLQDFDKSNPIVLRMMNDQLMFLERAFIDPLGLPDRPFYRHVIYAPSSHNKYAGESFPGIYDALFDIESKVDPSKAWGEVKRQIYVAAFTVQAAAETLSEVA
UniProt P14842, whole entry: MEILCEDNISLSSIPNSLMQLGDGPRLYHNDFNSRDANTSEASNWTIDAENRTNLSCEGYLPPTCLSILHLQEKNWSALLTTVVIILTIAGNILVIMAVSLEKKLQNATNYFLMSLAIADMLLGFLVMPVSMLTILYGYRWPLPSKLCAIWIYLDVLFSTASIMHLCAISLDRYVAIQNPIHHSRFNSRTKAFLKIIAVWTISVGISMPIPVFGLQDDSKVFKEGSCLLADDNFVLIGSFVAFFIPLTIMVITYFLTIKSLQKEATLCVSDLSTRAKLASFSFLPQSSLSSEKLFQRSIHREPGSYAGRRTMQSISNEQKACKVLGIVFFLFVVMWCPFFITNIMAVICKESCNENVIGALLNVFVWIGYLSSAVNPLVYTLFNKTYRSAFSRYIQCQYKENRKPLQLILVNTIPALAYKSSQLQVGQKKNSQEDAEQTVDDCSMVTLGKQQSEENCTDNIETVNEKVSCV
UniProt P02701, 25-152 limits assumed: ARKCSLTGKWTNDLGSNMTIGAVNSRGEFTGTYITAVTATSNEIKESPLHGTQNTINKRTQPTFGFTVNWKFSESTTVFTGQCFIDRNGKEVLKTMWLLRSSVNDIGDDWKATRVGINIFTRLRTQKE
UniProt Q9Y2M5, 317-603 limits assumed: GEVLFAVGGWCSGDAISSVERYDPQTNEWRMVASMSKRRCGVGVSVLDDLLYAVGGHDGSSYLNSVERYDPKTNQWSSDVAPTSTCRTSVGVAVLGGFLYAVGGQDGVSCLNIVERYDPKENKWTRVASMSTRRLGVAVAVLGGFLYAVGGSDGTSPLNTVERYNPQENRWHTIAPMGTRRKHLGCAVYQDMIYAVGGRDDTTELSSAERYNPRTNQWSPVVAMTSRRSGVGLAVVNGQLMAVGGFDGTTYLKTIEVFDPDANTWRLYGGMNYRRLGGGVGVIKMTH
UniProt P26358, whole entry: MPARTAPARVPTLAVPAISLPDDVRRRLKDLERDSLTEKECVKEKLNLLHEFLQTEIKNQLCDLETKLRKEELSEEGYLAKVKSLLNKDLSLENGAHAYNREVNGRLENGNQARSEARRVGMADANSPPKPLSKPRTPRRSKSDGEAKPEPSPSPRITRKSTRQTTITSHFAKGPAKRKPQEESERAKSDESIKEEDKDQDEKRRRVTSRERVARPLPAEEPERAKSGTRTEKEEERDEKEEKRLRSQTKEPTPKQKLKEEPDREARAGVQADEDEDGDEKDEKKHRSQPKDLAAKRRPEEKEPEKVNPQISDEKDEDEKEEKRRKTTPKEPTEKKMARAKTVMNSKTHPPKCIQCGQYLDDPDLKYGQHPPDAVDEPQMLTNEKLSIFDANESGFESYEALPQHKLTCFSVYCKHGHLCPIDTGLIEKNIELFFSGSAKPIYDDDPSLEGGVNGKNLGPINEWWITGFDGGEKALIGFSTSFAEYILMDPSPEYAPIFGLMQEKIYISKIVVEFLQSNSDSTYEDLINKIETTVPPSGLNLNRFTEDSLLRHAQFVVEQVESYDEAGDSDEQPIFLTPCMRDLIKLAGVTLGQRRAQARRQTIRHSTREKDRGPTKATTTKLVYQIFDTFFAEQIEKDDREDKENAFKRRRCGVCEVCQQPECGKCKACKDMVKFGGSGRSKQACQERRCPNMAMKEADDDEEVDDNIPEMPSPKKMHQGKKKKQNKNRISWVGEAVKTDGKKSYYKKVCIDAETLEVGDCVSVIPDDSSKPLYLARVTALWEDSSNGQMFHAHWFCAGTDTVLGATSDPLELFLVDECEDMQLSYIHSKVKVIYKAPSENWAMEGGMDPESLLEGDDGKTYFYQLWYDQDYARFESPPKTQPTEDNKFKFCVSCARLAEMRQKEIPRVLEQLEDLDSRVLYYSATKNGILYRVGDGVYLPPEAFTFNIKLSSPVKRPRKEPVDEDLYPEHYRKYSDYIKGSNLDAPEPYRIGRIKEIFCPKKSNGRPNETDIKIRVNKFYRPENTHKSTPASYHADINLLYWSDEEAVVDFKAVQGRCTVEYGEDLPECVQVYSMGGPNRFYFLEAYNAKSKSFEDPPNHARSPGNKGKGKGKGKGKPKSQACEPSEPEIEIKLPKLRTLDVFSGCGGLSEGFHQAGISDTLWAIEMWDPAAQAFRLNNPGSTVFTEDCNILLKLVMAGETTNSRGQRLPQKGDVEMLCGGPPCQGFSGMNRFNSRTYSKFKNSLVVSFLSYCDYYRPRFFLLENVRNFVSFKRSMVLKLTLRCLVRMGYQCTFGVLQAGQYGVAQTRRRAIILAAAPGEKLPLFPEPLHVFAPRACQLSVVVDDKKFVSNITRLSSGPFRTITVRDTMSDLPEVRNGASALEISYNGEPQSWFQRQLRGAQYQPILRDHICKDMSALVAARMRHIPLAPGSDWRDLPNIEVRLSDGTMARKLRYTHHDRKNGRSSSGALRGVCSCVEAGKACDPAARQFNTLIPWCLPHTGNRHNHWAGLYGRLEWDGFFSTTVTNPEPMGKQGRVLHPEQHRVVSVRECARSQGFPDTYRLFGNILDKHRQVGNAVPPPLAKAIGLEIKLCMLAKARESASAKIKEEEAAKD

CCc1cc2c(=O)c(-c3nc4ccccc4n3C)c(C)oc2cc1OC(C)=O  Ki (FPR1 (Homo sapiens, UniProt P21462); binding): 95 nM
N#Cc1c(-c2ccc(Cl)cc2Cl)n(-c2nc(-c3ccc(Cl)cc3)c3c(NC(=O)c4ccccc4)nnc-3[nH]2)[nH]c1=O  cell growth (RXF 393; SRB; 10 µM): -35.5%
CCOC(=O)Oc1ccc2c(c1OC(=O)OCC)C(=O)c1ccccc1C2=O  IC50 (NAT2 (Homo sapiens, UniProt P11245); enzyme activity, inhibitor; recombinant in yeast lysate; together with: 10 µM 4-aminobiphenyl and 100 µM acetyl-CoA): 41300 ± 12900 nM
CC(C)C[C@H](NC(=O)[C@H](C)NC(=O)[C@H](CCCNC(=N)N)NC(=O)[C@H](CCCNC(=N)N)NC(=O)[C@H](CCCNC(=N)N)NC(=O)[C@H](C)NC(=O)[C@H](CC(C)C)NC(=O)[C@H](CCCNC(=N)N)NC(=O)[C@H](CO)NC(=O)[C@H](CCCCN)NC(=O)[C@H](CO)NC(=O)Cn1cc(COC(=O)[C@]2(C)C=C(C(=O)OC(C)(C)C)C(=O)CC2)nn1)C(=O)O  normalized kinase activity (MAPK14 (Homo sapiens, UniProt Q16539); enzyme activity, inhibitor, D-SENSOR; 7.407 µM): 0.0307
COc1cccc([C@@H]2N=C(c3ccc(OC)cc3OC(C)C)N(C(=O)N3CCNC(=O)C3)[C@@H]2c2ccc(Cl)cc2)c1 (relative stereo)  Kd (MDM4; pH 6.5, 298 K, global fit common resonances): 4200 ± 1000 nM
NS(=O)(=O)c1nnc(NC(=O)C2C3CC4CC(C3)CC2C4)s1 (stereo not shown)  Ki (alpha-carbonic anhydrase (Enterococcus faecium, UniProt Q3XYE8); CO2 hydration, inhibitor, stopped-flow kinetics): 92.4 nM
CC/C=C\C/C=C\CCC/C=C/C=C/C=C\CCCC(=O)O  IC50 (TOP2A (Homo sapiens, UniProt P11388); catalytic activity, inhibitor, gel; together with: 2 units topo II, pBR322): 2500 ± 300 nM
C#CCC(NC(=O)C1CC(C2CCCCC2)CN1C(=O)CSC1CCN(C(=O)CCC(NC(=O)NC(CCC(=O)O)C(=O)O)C(=O)O)CC1)C(=O)NCCOCCOCCNC(=S)Nc1ccc2c(c1)C(=O)OC21c2ccc(O)cc2Oc2cc(O)ccc21 (stereo not shown)  Kd (FOLH1 (Homo sapiens, UniProt Q04609); fluorescence polarization; FITC-labelled compound): 0.9 nM
COc1ccc(C2=N[C@@H](c3cccc(Cl)c3)[C@@H](c3ccc(Cl)cc3)N2C(=O)N2CCNC(=O)C2)c(OC(C)C)c1 (relative stereo)  Kd (MDM4; pH 6.5, 298 K, global fit common resonances): 6000 ± 1800 nM
c1cnc2c(N3CCN(CCCN4CCN(c5cccc6sccc56)CC4)CC3)cccc2c1  Ki (5-hydroxytryptamine receptor 2A (Rattus norvegicus, UniProt P14842); binding): 83.4 ± 9.7 nM
CC[C@H](C)[C@@H]1NC(=O)[C@H](C(C)C)NC(=O)[C@H](Cc2ccc(O)cc2)NC(=O)[C@H](Cc2ccccc2)NC(=O)[C@H](CCC(N)=O)NC(=O)[C@@H]2CCCN2C(=O)[C@H](Cc2c[nH]cn2)NC(=O)[C@@H](NC(=O)[C@H](C)N)CSSC[C@@H](C(=O)N[C@@H](CO)C(=O)NCC(=O)O)NC1=O  apparent Kd (Avidin, deglycosylated (AVD, Gallus gallus, UniProt P02701); binding, yeast display flow cytometry; 30 to 300 nM, 1 h, 4 °C, together with: neutravidin-DyLight 650): no binding
NS(=O)(=O)c1nnc(NC(=O)C2C3CC2C3)s1 (stereo not shown)  Ki (Enterococcus faecium gamma-carbonic anhydrase; CO2 hydration, inhibitor, stopped-flow kinetics): 280 nM
Cc1sc2c(c1C)C(c1ccc(Cl)cc1)=N[C@@H](CC(=O)NCC(=O)NCC(=O)NCC(=O)NCC(=O)N[C@H]1CSCc3cccc(c3)CSC[C@@H](C(N)=O)NC(=O)[C@H](CC(C)C)NC(=O)[C@H](CC(=O)O)NC(=O)[C@@H]3CCCN3C1=O)c1nnc(C)n1-2  EC50 (BRD4/KLHL20, BD1 (Homo sapiens, UniProt O60885+Q9Y2M5); ternary complex formation, ELISA; together with: immobilized KLHL20 Kelch domain): 8 nM
Cc1cc(S(=O)(=O)N[C@H](C)CO[C@H]2CC[C@H](CN3CCN(c4ccc5c(c4F)n(C)c(=O)n5C4CCC(=O)NC4=O)CC3)CC2)ccc1Nc1ncc(C(F)(F)F)c([C@H]2CC[C@@](C)(O)CC2)n1 (stereo partly shown)  DC50 (CDK2 (Homo sapiens, UniProt P24941); degrader, AlphaLISA; MKN-1 CCNE1-amplified; 14 h): 13 nM
CCc1c(C#N)c(SC(C(N)=O)c2ccc(F)cc2)nc(N2CCC(N(C)C)CC2)c1C#N (stereo not shown)  DC50 (DNMT1 (Homo sapiens, UniProt P26358); degrader, Western blot; HCT-116; 24 h): 35 nM and < 50 nM
CCC(=O)O[C@H](CCOCc1ccccc1)[C@@H](C)[C@H](O)[C@@H](C)CCC(=O)[C@H](C)[C@H](OC(C)=O)[C@H](C)/C=C/N(C)C=O  Kd (Actin, alpha skeletal muscle, monomeric (ACTA1, Oryctolagus cuniculus, UniProt P68135); Prodan fluorescence titration; G-actin; pH 8.0, together with: 0.2 mM ATP): 285 ± 32.6 nM
C[C@H](NC(=O)[C@@H](N)Cc1ccc(O)cc1)C(=O)NCC(=O)N[C@@H](CO)C(=O)N[C@H](C(=O)N[C@@H](CC(=O)O)C(=O)N[C@@H](CCC(=O)O)C(=O)N[C@@H](CC(N)=O)C(=O)N[C@H](C(=O)N[C@@H](CC(=O)O)C(=O)N[C@@H](CO)C(=O)N[C@@H](CCC(=O)O)C(=O)O)[C@@H](C)O)[C@@H](C)O  Kd (Bifunctional polynucleotide phosphatase/kinase, FHA domain (Homo sapiens, UniProt Q96T60); binding, isothermal titration calorimetry; 400 µM, pH 7.5, 10 °C): no binding
CCOC(=O)c1c(-c2ccc(Cl)cc2Cl)n(-c2nc(-c3ccc(Cl)cc3)c3c(NC(=O)c4ccccc4)nnc-3[nH]2)[nH]c1=O  cell growth (SF-295; SRB; 10 µM): 16.2%
C=C(C)C(=O)Nc1ccc(-c2c(-c3ccc(Oc4nccc(C)n4)c(F)c3)c3c(N)ncnc3n2C)cc1  IC50 (EFM-19; cell growth, CellTiter-Glo; 120 h): 1580 nM

Repeated from above:
CCOC(=O)Oc1ccc2c(c1OC(=O)OCC)C(=O)c1ccccc1C2=O  IC50 (NAT2 (Homo sapiens, UniProt P11245); enzyme activity, inhibitor; recombinant in yeast lysate; together with: 10 µM 4-aminobiphenyl and 100 µM acetyl-CoA): 41300 ± 12900 nM
